Measured values of several laboratories.
Protocols differ between the studies behind these lines.
Target: Prostaglandin G/H synthase 2 (PTGS2, Homo sapiens, UniProt P35354)
Sequence of UniProt P35354 (whole entry, looked up): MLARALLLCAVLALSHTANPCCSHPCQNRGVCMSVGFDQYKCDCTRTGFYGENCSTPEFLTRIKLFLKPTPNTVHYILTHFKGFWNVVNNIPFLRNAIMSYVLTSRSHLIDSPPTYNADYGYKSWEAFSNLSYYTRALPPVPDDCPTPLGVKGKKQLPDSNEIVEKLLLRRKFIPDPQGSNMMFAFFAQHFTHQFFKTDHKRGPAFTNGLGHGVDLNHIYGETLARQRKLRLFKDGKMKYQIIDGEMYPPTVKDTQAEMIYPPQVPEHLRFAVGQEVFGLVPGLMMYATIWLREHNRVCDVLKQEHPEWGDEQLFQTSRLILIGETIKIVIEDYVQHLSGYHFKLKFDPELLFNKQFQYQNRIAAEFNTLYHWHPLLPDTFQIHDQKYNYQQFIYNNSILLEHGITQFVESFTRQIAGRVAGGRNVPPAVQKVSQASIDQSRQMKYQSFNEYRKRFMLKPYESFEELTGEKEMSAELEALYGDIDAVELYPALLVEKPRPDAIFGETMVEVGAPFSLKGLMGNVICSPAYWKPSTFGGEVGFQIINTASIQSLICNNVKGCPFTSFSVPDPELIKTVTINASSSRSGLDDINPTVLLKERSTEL
Effect on: enzyme activity
Action: inhibitor

Cc1ccc(C(=O)/C=C/c2ccc(N(C)CCO)cc2)o1  IC50 (ELISA): 10.1 µM
N#CC1=C(N)n2c(nnc2-c2ccncc2)NC1c1ccc(Cl)cc1 (stereo not shown)  IC50: 23.6 µM
COc1cc(OC)cc(C(=O)/C=C/c2ccc(N(C)CCO)cc2)c1  IC50 (ELISA): 4.78 µM
N#CC1=C(N)n2c(nnc2-c2ccncc2)NC1c1ccc(Br)cc1 (stereo not shown)  IC50: 59.6 µM
CCN(CC)c1ccc(/C=C/C(=O)C(c2ccccc2)c2ccccc2)cc1  IC50 (ELISA): 51.2 µM
CCCCCCCCCCCC1=C(O)C(=O)C=C(NCCN2CCOCC2)C1=O  IC50 (ELISA): 1.54 µM
COc1cc(OC)c(C(=O)/C=C/c2ccc(N(C)CCO)cc2)c(OC)c1  IC50 (ELISA): 8.38 µM
COC(=O)c1ccc(-n2nc(-c3ccccc3O)nc2-c2ccccc2O)cc1  IC50: 1.12 µM
CC(=O)c1cc2ccccc2oc1=Nc1nccs1  IC50 (ELISA): 0.33 µM
Cc1ccc(C2Nc3nnc(-c4ccncc4)n3C(N)=C2C#N)cc1 (stereo not shown)  IC50: 55.7 µM
O=C(Cc1ccccc1Nc1c(Cl)cccc1Cl)NNC(=S)Nc1ccc(Cl)c(Cl)c1  IC50: 1.29 µM
O=[N+]([O-])c1cccc(C2=Nn3c(nnc3-c3ccc(-n4nc(-c5ccccc5O)nc4-c4ccccc4O)cc3)SC2)c1  IC50: 79.5 µM
CC(C)[C@H](NC(=O)[C@H](CCC(=O)O)NC(=O)[C@@H](NC(=O)[C@@H](C)c1cccc(C(=O)c2ccccc2)c1)C(C)C)C(=O)N[C@@H](CCC(=O)O)C(=O)O  IC50 (fluorescence): 4.8 µM
